# Experimental data of several laboratories.
# Parts stem from different laboratories: compare values within a part only.

# Set 1
# Target: Prothrombin, mature alpha-thrombin (F2, Homo sapiens, UniProt P00734)
# Method: aptamer microarray, sandwich
# Form: DNA with 2'F-ANA
# Sample: in vitro
# Concentration: 200 nM
# Notes: whole 15-mer aptamer, many near background
# With: Cy3 exosite-II aptamer, 400 nM
# Reading: higher = stronger binding
# Sequence: GGTTGGTGTGGTTGG
Modification,mean fluorescence intensity
2'F-ANA at 1 2 7 10 11 12 15,66.7 a.u.
2'F-ANA at 2 3 9 15,760 a.u.
2'F-ANA at 3 5 8 9 10 11 15,57.5 a.u.
2'F-ANA at 2 3 4 5 7 10 11 12 14 15,46.2 a.u.
2'F-ANA at 1 2 3 4 7 14,72.1 a.u.
2'F-ANA at 3 5 8 11,122 a.u.
2'F-ANA at 2 8 9 11,415 a.u.
2'F-ANA at 1 5 9 13 14 15,46.3 a.u.
2'F-ANA at 3 6 8 9 10 12 14,348 a.u.
2'F-ANA at 3 6 9 10 11 14,391 a.u.
2'F-ANA at 2 3 4 5 8 10 12 13,81.6 a.u.
2'F-ANA at 3 5 6 7 10 11 12 14 15,53.1 a.u.
2'F-ANA at 1 2 5 9 10 11 13,50.1 a.u.
2'F-ANA at 1 4 6 8 9 11 12 14,52.1 a.u.
2'F-ANA at 2 3 4 6 7 10 13,184 a.u.
2'F-ANA at 1 2 3 5 7 9 11,58.5 a.u.
2'F-ANA at 3 5 8 9 11 12 13 14 15,91 a.u.
2'F-ANA at 3 6 7 10 12 14,466 a.u.
2'F-ANA at 3 5 6 7 9,103 a.u.
2'F-ANA at 1 2 3 4 5 6 10,48.5 a.u.
2'F-ANA at 8 11 12 13 15,656 a.u.
2'F-ANA at 1 3 4 6 8 9 13 14 15,61.1 a.u.
2'F-ANA at 5 6 7 8 9 10 11 12 15,50.5 a.u.
2'F-ANA at 3 4 5 7 8 9 10 12 14 15,59.6 a.u.
2'F-ANA at 3 6 8 10 13 14,353 a.u.

# Set 2
# Target: Interferon regulatory factor 5, full length, phosphomimetic (IRF5, Homo sapiens, UniProt Q13568-2, residues 1-514, K96S/S451D/S453D/S456D/S462D)
# Method: protein-binding microarray
# Form: double-stranded DNA, one strand shown
# Sample: in vitro
# Concentration: 250 nM
# Notes: 60-bp whole probe
# With: salmon DNA 0.4 mg/ml
# Baseline: random background probes
# Reading: higher = stronger binding
# All sequences stand within: GCCTAGCAC … GTCTTGATTCGCTTGACGCTGCTG
Sequence,log fluorescence [z-score]
CTTTATGTCCTGTCTACATGGGTGCTA,0.142
GACGGACAGGGTTTCGGGACGTGCTAG,1.36
CCCAGTCTCATATTTATTAGGTGCTAG,0.4
GACGGTCTCCTACTGCTGATGTGCTAG,-0.0365
GGCCGTCTGAGCTCCGTAGCGTGCTAG,-0.802
TGGAACTTAAAAGAAAGATAGTGCTAG,0.683
CTAGAACTGGGGTTTCGATTAGTGCTA,5.47
TCATGTTTGATAATTTTACTGTGCTAG,0.651
GACGATTTTGGGACTGGAGACGTGCTA,-0.184
TTAGGGCTGGGACTGGGTTAGTGCTAG,-0.375
TTAGATTTCAGTATCTATTAGTGCTAG,3.23
TTAGGTATACTACTGCTTTAGTGCTAG,-0.176
CTAGGTATCGGGTTTCGGTTAGTGCTA,7.9
GACGATTTCAGTCCCGAGACGTGCTAG,0.873
AGCTCCCTTTCTCTCTGTGAGTGCTAG,0.86
TTAGATTTCAGCCTCGATTAGTGCTAG,0.649
TTAGGTCTCGGTCTGGGTTAGTGCTAG,0.436
TTCGGTTTCGGGTTTCGGTTAGTGCTA,9.85
GACGGTATCGGAATCGGGACGTGCTAG,2.02
GACGATTTCGGGTACCGAGACGTGCTA,3.8
GAAGAAATTTAATAGTCACTGTGCTAG,0.502
GGCGGTTCCCTTTTCCTGACGTGCTAG,-0.233
AATGTATAACGCCATTAGCTGTGCTAG,0.217

# Set 3
# Target: RING finger protein unkempt homolog, zinc fingers 1-6, GST-SBP tag (UNK, Homo sapiens, UniProt Q9C0B0, residues 30-357)
# UniProt Q9C0B0, sequence (30-357, looked up): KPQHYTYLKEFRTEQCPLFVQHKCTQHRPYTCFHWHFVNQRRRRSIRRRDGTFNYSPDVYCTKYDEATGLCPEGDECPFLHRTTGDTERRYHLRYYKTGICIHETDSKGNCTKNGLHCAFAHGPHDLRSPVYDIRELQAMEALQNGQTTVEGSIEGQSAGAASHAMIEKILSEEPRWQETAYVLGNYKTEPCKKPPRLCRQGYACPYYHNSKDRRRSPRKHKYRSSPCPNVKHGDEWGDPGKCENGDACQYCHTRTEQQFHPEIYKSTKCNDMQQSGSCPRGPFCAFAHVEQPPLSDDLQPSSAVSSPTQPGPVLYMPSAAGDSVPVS
# Method: RNA Bind-n-Seq
# Form: RNA
# Sample: in vitro
# Concentration: not given
# Notes: RNA with constant flanks, ends assumed
# Baseline: input RNA pool
# Reading: higher = stronger binding
# All sequences stand within: GGGAGUUCUACAGUCCGACGAUC … CAACAGAGGAUUGAGCAUCA
Sequence,bound/input enrichment [ratio]
UCUCAUUGUCUCACACUCUGACAAGAGUGAGUUAUUAUUUUUUUCUUUUUUACAUUUUGUACCGAGACAAAUUCAUUUAAACAAACUUAUUAUUAUUAUUAUUUUUUACAAAAUAUAUAU,46.4
ACCUUCCUUGUAUUUUCCAAGGCUGAACUUGGUGCUCUUCCUGAUGAUUUCAUUGACAGUUCCGAAAAGACAGAUGAUGACAAGUAUAAAAUUACCUUAAAAUAUCCACACUAUUUCCCU,0.584
ACAGGUCAAGUGGUAGCCAUGAAAAAAAUCAGACUAGAAAGUGAAGAGGAAGGGGUUCCCCGUACUGCAAUUCGGGAAAUUUCUCUAUUAAAGGAACUUCGUCAUCCAAAUAUAGUCAGU,0.297
AGCAAAAAUCAAAUUAAAGUAGAUCUUGUAGAUGAGAAUUUUACAGAAUUAAGAGGAGAAACCGCAGGACCUCCAGACACACCAUAUGAAGGAGGAAGAUACCAACUAGAGAUAAAAAUA,14
AUAAGCCCUGAUUCUGGUUUUUAACAAGCUGUUUGUUCAUCUAUAUUUAGUUUAAAACCGGCCGUAUUAUCUUUCUGUACAUAGUGUACAUUACAACUAAAAGUGAUGGAAAAAUACUGU,0.428
GACUGGGAGCAGACUCAGAAAAUCUACAAUUGUCACGUGCUGCUGAACAGCAAAGGGGCAGCCGUGGCCACUUACAGGAAGACACAUCUGUGUGACGUAGAGAUUCCAGGGCAGGGGCCU,0.249
ACAUUUUUAUGGUCUCCUAUGCCUGAACAUUAUGUGGAAGGAUCAACAGUCAAUUGUGUACCCGCAUUUCAAGGAUAUUACCUUCCAAAUGAUGAUGGAGAAUUUUAUCAGUUCUGUUAC,0.166
UACACAUCAUUUUGGAAUGACUGUAUAUCAUCUGGAUUACGUGGCUGUAUGUUAAUUGAAUCCGCUUUGAGAGGAAGGUUACAGUUAGAGGCUUGUGGAAUGAGAAGAAAAAGUCUUUUA,0.213
AAUAAACAGGAUAUGAAAGGGUGUAUGACAGCAGCUGAAAUCUCGAAAUACCUCACCCUCCGUUCAAUUAAGGAUCAUCCAUGGCACAUUCAAUCCUGCUGUGCUCUCACAGGAGAAGGG,0.187
GAGAGAAUGUGUGUGUGUGUGUGUGUGCGCGUGCGUGAGAGGAUAAACUUUAACCUUCCCACCCGUUUAUUCUUUUACUUUAGUGUUUUCUUAGUUAGAAAACCACUAUUAACAUUAAAU,0.891
ACAGAGCCGAGUAGCAAUAACAGUGAUGAUUGUCCAGGCAAGAGUGAAGACGACGAACACUCCGACCAAAUUCAAAGUAAAGACUCCUGUGAUGAGGGAAAUAAAGUGAACAGUAAUGUC,0.186

# Set 4
# Target: Histone acetyltransferase KAT6A, both winged helices, GST fusion (KAT6A, Homo sapiens, UniProt Q92794, residues 1-181)
# Method: protein binding microarray
# Form: double-stranded DNA, one strand shown
# Sample: in vitro
# Concentration: not given
# Notes: 8-mer, flanks averaged, mean of 2 arrays, mostly near background
# Baseline: not given
# Reading: higher = stronger binding
# Residues (chain): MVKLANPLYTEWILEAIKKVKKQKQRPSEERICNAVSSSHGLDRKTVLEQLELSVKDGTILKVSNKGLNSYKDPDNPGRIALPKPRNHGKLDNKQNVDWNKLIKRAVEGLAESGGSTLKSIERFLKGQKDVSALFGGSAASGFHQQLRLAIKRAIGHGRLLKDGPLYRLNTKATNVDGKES
Sequence,E-score
ACGATTCA,-0.0294
CTATAGAG,-0.0988
CTGGAGCA,-0.114
GCGGGCTA,0.187
CGGCATAC,0.284
CGGTTTGC,0.187
CTGAGTTC,-0.0477
CCCCGCGC,0.326
TGCCGACA,0.249
CGATACTA,0.0404
AGGACTCG,-0.0713
AATGATTA,-0.137
GCTGCGCA,0.21
CATAAGAC,0.0302
ATCTTGGC,-0.182
AACATTAC,-0.0284
CAAGAGCG,0.099
GGAATGCA,-0.0641
ACACCAAG,-0.14
CCTCACGC,0.0938
CACTTTAC,-0.0396
CGCATCGC,0.28

# Set 5
# Target: Sal-like protein 4, full length isoform B (SALL4, Homo sapiens, UniProt Q9UJQ4-2, residues 1-616)
# Method: universal PBM
# Form: double-stranded DNA, one strand shown
# Sample: in vitro
# Concentration: not given
# Notes: 8-mer, flanks averaged, mean of replicates
# Reading: higher = stronger binding
# Target sequence (chain): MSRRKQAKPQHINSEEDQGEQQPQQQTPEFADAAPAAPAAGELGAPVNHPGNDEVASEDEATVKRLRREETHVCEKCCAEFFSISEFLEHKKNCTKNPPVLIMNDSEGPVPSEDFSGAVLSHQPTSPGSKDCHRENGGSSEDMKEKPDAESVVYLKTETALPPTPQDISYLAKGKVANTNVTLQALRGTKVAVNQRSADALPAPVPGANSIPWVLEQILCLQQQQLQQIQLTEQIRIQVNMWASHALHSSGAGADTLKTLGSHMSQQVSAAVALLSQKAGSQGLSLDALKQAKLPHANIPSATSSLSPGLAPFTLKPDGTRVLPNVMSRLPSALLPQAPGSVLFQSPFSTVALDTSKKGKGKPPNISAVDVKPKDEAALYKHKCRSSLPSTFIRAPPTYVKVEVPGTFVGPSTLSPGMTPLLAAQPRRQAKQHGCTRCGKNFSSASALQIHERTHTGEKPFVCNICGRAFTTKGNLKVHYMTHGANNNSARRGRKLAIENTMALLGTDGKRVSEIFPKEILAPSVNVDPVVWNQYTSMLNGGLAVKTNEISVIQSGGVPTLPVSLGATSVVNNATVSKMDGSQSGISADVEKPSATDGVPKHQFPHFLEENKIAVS
Sequence,E-score
GGCACGCA,-0.246
TTATTCAA,0.348
ACCTAACA,0.0413
AGCATGAC,-0.104
AGCTTTGC,-0.0885
ATACGGAC,0.0141
TAGGCACA,-0.0177
CTAAGACA,0.0863
ATTGAGTC,-0.0103
AACGAACC,-0.0681
TATTAGGA,0.304
CTTGATCA,0.0598
CCCGGCGA,-0.387
GTAGGCCA,-0.137
ACTACTTA,0.157
CGGGGTAC,-0.348
TGGTGCAA,0.0216
CAAGGAGA,-0.0424
CATTTTGG,0.19
GTTCAGTA,0.106
CGGTGGAG,-0.272
CTTGGAGC,-0.164
AAGCATGT,0.145
GCCCTCCA,-0.222

# Excerpt of the above (set 5):
Sequence,E-score
CCCGGCGA,-0.387
GTAGGCCA,-0.137
ACTACTTA,0.157
CGGGGTAC,-0.348
TGGTGCAA,0.0216
CAAGGAGA,-0.0424
CATTTTGG,0.19
GTTCAGTA,0.106
CGGTGGAG,-0.272
CTTGGAGC,-0.164
AAGCATGT,0.145
